Measured values pooled from the literature.
Protocols differ between the studies behind these lines. ± marks the error that the study gave.
Target: Muscarinic acetylcholine receptor M1 (CHRM1, Homo sapiens, UniProt P11229)
Sequence (P11229 1-460, as in one of the studies): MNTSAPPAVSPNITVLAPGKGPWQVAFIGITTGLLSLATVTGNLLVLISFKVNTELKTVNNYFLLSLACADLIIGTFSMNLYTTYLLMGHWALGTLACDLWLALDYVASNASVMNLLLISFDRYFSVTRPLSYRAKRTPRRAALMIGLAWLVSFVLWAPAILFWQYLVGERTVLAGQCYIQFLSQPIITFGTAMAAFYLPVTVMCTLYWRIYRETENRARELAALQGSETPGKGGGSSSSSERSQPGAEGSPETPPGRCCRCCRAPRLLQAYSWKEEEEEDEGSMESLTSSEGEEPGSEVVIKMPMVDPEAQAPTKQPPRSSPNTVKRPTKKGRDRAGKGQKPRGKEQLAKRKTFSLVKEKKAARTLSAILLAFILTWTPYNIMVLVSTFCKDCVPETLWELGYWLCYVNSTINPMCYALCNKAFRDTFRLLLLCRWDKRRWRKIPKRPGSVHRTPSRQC

Compound	assay	test system	conditions	scale	quantity	value
CCCCCCOc1ccc(C(=O)OCCN2CC=CCC2)cc1	–	membranes	10 µM, 15 h, no carbachol	baseline: control	basal binding	1.06 ± 0.03 fold
O=C1c2sc(-c3ccc(N4CCC(F)C4)nc3F)nc2CCN1c1cccnc1 (centres unmarked)	ligand displacement, radioligand	–	1 µM	–	inhibition	3%
CCCCCCOc1ccc(C(=O)OCC[N+]2(C)CC=CCC2)cc1 (centres unmarked)	–	membranes	1 µM, 15 h, together with: carbachol	baseline: control	Emax	1.65 ± 0.06 fold
C=CCn1c(=O)c2ccccc2n2c(SCC(=O)NC3CC3)nnc12	receptor activation, agonist	–	concentration not given, 16 h	–	Emax	123 ± 8%
Cc1[nH]nc2c1N=C(c1ccccc1Cl)c1cnc(N3CCOCC3)cc1N2	cell-free assay	–	10 µM	–	inhibition	2%
CCC(=O)N(C)c1ccc(Cl)c(Cl)c1	ligand displacement, radioligand	–	10 µM	–	inhibition	< 10%
COc1ccc(C#CC2=C[C@H]3C[C@@]4(OC(=O)C=C24)[C@H]2CC[C@H](C(OC)OC)N32)cc1	ligand displacement, radioligand	–	10 µM	–	inhibition	3%
C=CCn1c(=O)c2ccccc2n2c(SCC(=O)NCc3ccc(NC(C)=O)cc3)nnc12	receptor activation, agonist	–	concentration not given, 16 h	–	Emax	143 ± 5%
COc1ccc(S(=O)(=O)N2CCc3ccccc3C2)cc1N1CCN(C(=O)c2ccc(F)cc2C(F)(F)F)CC1	cell-free assay	–	1 µM	–	inhibition	0.8%
CO[C@@H](C)c1c(NC(=O)Nc2cnc(-n3nccn3)c(C(F)(F)F)c2)cnc2sc(C)nc12	ligand displacement, radioligand	–	10 µM	–	inhibition	6.9%
C[Si](C)(C)C[C@@H](CN)CC(=O)O	ligand displacement, radioligand	–	75 µM	–	inhibition	9%
Cn1ccc2cc(-n3c(=O)[nH]c4sc5c(c4c3=O)CCCC5)ccc21	cell-free assay, radioligand	–	10 µM	–	inhibition	-14%
C=CCn1c(=O)c2ccccc2n2c(SCC(=O)Nc3ccc(NC(C)=O)cc3)nnc12	receptor activation, agonist	–	concentration not given, 16 h	–	Emax	142 ± 12%
Brc1ccccc1-c1nnc(CSc2nnnn2-c2ccccc2)o1	ligand displacement, radioligand	–	10 µM	–	inhibition	-15%

Repeated from above:
Compound	assay	test system	conditions	scale	quantity	value
CCC(=O)N(C)c1ccc(Cl)c(Cl)c1	ligand displacement, radioligand	–	10 µM	–	inhibition	< 10%
